Measured values collected from several papers.
Every numbered part comes from another study and shows a few of its results, in no order.

Study 1 — method: protein binding microarray; molecule type: double-stranded DNA, one strand shown; sample: in vitro; concentration: not given; baseline: not given; reading: higher = stronger binding; measurement: E-score
Target: Histone acetyltransferase KAT6A, both winged helices, GST fusion (KAT6A, Homo sapiens, UniProt Q92794, residues 1-181)
Setting: 8-mer, flanks averaged, mean of 2 arrays, mostly near background
Residues (chain): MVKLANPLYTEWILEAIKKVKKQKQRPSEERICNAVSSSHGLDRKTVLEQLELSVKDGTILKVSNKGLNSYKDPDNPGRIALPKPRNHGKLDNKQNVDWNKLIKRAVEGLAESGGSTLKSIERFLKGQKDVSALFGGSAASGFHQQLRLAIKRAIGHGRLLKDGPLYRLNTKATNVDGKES
AGCGGTTA: 0.199
CTGGCCTC: -0.158
CCGGTTAA: 0.19
ACCGGTCA: 0.166
TCTAAGAA: -0.0672
AGTCGTCA: -0.15
GTAGAGCA: -0.196
CGTAAAAA: 0.0805
ATAGCACC: -0.0323
CTATCCCA: -0.196
TAGGTATA: -0.176
GCGAGGGA: 0.0268
AGGCGTCG: 0.176
CACGTGTC: -0.144
GAAGCAGC: -0.0729
TAAGGCTA: -0.211
TAGGATGA: -0.0317
ATAATTAC: -0.0473
CTCGTAGC: -0.0445
GTAAAGGA: -0.123
AGATCGAA: -0.0541
AGAACTTC: -0.0247
CTACGTCC: 0.00721
AGGGCTTG: -0.0771

Study 2 — method: RNA Bind-n-Seq; molecule type: RNA; sample: in vitro; concentration: not given; baseline: input RNA pool; reading: higher = stronger binding; measurement: bound/input enrichment
Target: RING finger protein unkempt homolog, zinc fingers 1-6, GST-SBP tag (UNK, Homo sapiens, UniProt Q9C0B0, residues 30-357)
UniProt Q9C0B0, sequence (30-357, looked up): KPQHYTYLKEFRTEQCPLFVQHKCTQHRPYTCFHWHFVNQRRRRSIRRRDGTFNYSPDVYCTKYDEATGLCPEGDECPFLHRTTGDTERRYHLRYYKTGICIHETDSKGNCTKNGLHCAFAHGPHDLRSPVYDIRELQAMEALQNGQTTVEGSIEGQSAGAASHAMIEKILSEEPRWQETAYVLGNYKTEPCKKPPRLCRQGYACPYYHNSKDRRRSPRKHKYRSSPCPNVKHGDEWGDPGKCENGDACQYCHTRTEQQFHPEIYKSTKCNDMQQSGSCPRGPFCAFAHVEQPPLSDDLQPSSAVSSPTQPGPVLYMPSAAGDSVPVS
Setting: RNA with constant flanks, human and mouse sites, ends assumed
Shared flanks, not repeated: GGGAGUUCUACAGUCCGACGAUC … CAACAGAGGAUUGAGCAUCA
UUGUUGGGCAAGGUGGGGUCACAGGACAUGGGACUAGUAAGCAUUUUACUGUUUACUAUAUUUGUCUUUUUAUAAACAGUAUCUCCCAAAAUGUGAUUAGAAGGCUACCAAGCCUGUAUU: 0.364 ratio
AGUAGAGAGAUAACAAAAGCUGCUCAGAGUCUCAAUGAACUUGAUUAUCUUUCUCAAGGAAUAGAUCUUUCUGGAAUAGAAGUGAUAGAAAAUGAUCUACUUUUUAUUGCAAGAGCCCGA: 0.193 ratio
AAAGAAGAAAGAAAAGGAAAAAAAAUAUAAAAGACAGCCAGAAGAAUCUGAGUCAAAGACGAAAUCUCAUGAUGAUGGGAACAUAGAUUUAGAAUCUGAUUCCUUUUUAAAGUUUGAUUC: 0.385 ratio
GAGCGUCUUGCCCGCACUGGGAUCAUCGUGACCACUAGUGAGGCUGUCCUCCUACAGCUGGUGGCUGACAAAGACCACCCGAAGUUCAAGGAAAUUCAGAACCUAAUUAAGGCGAGUGCC: 0.188 ratio
UGUUUUGCACGUAUGGUUGGAUGUACUGGAAAAGUCAUAGGAAUUGAUCACAUUAAAGAGCUAGUAGAUGACUCAGUAAAUAAUGUCAGGAAGGACGAUCCAACACUUCUGUCUUCAGGG: 4.13 ratio
CAACAGCAGCGAUUACUAGACAUUGCCAAGAAGGAAAAUGUCAAAAUUAGUGAUGAGGGAAUAGCUUAUCUUGUUAAAGUGUCAGAAGGAGACUUAAGAAAAGCCAUUACAUUUCUUCAA: 0.302 ratio
AGUGAUGAUGUCAUCGAGUUGACGCCAUCAAAUUUCAACAGAGAAGUUAUUCAGAGUGACGGCCUGUGGCUUGUAGAAUUUUAUGCACCAUGGUGUGGUCACUGCCAGAGGUUAACACCA: 0.118 ratio
GGCCAGGAGCGAUUUCACACCAUCACAACCUCCUACUACAGAGGCGCAAUGGGUAUCAUGCUAGUAUAUGACAUCACCAAUGGUAAAAGUUUUGAAAACAUCAGCAAAUGGCUUAGAAAC: 0.398 ratio
AAACUGCAUUCCAGCGCCAGUCCCAGUGCUCAGCAGUACGAUGCUUCCAGUGCAGUACUUUUAGACAACCUCCCUGGAGUCCGGUGGCUCACACUUCCACUGGAAAUCAAGAUGGAAUUA: 0.241 ratio
CUUGAAAGUUCGGGGGCAUUUUGUUGUGUUCUGUAGGAGAGAGGGGGAGGACCCUGUUCGGGUAGUUUGGCCGGACUGGUACUGGCCGUUGGAAAACCCGAAGUACAUUUCCGUGUGGAA: 0.186 ratio
GCAUCCUGUGAAAAUACUCUUAAUACGUUAAGAUAUGCAAAUAGAGUAAAGGAGUUUGGAAUUAGUCCUUCAGACAUUCCCUUCUCCCAGGGUGGUGGCAGUCGCCCUGAUCUCUCUCCU: 0.125 ratio

Study 3 — method: RNA Bind-n-Seq; molecule type: RNA; sample: in vitro; concentration: 365 nM; baseline: no-protein control; reading: higher = stronger binding; measurement: RBNS enrichment (R)
Target: RNA binding protein fox-1 homolog 2, RRM domain, GST-SBP tag (RBFOX2, Homo sapiens, UniProt O43251-10, residues 100-194)
Setting: natural RNA segment, single round, ends assumed
Shared flanks, not repeated: GGGAGUUCUACAGUCCGACGAUC … UGGAAUUCUCGGGUGCCAA
Construct (chain): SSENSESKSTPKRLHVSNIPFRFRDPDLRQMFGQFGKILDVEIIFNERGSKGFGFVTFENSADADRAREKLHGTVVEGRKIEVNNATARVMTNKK
AACCCCCCACCCCGUUACCCUGACCUGAUAAAUCCCAUGACCACAUUUCUCAUAUAAAGAAGACAUCUACCAUUGAGUGAGCCAUCUCUUGGGAAGCUCUGGGAGAUGUG: 0.417
CCCAAAGCGGGACGCCGCAGGUGUUUGGCACCCAAAUCACAUCUCACCUCCGAACUGUUCAAGUGUCCCCAGACCCUUCUUGCCUGCUGGGCUCCCCCCAGUGGGAUGGG: 0.418
AUCUUGCUCCCAGGACCUGCCUCUUCCCAGGCUUCCUGGGGAAGAGUUGUACGCCCAGGCAACAAGGGCUGAGCUGCGCUUGCGUGGCUGUUUCAUGACCGCUUGUUUUU: 0.215
AAAAGUUAACCCAGUUGAGAUUUUUAAAAAGUUUUACAAAUACAUAUAACACUUAUGUGCUGGGCUUUCUUUUAAAUGCUUUCCAAGUGUUAACUUGUUUAGUCCCCUUU: 0.378
GCGCUAUGGACAAAAAAAGAAAAAGAUCCACUAAAAGAAAGAUUUAGAUGGCUUCUUGCCAGUUUGAGCCUAAUCUGAUUCUUACAGUUUUACCUUCUUGAACCAAUGUA: 1.12
AUUGGAAAAGAUUUUCAAAAUUAAUAUAAAGUGCAGAAGUUAAAAAUCUAAUAUUUAGUUGUUUAGGAAUAAUCACAAGUAUCGGCAGUCAAUUUUAAAGCAUUAUUAAG: 0.432
UUAAAUAUGGCACUGCUUCUAAGCCUCGUUCCAGUUAAGUUUCACAUGACAGUUAGCUCCUCUGACCUGUCUUUCUAGGUAACUGGAAAUGAACUUCAGGCUUGAUACAG: 0.249
UGGGAGUGGAGAUGGAGGGAUUAUUGAGCAGAAAAUGAGUUGGAUGGAGAUAAACAGCUCCCAUCCCUGGGUAAUGGAUGGUAAGAUGAUGGAGAUUCCUAAGAUUGGUG: 2.31
UUUUUGGUUGCCUAGACAUCAGGUAAACAUUCAGUACACUAAAGAAACUAUCCUGGACACUCCCUCCUGCUUCCACCAAUUUUUUUCUCACCCCCUUUUCAAAAAUUGAA: 0.75
UCAAAAUCAGUAACUUUUAAUCUAGGAAAUUGAAAAAUAUUAAGUUGCAAAGCAAAAAAAGGUAUUUUCUUGAAAAUACUAUUUAAUGUUUAACUAGACUAUAGGUAGUU: 0.465
CUGCCAGCAGUACAGGGCACAGCCCAAGCCACCAUAGGCCAGCCUGGAGUCUUUUUCAUGCUCUGGUCACCCAAGCUGCCUCAGAACCCAUUUGCUUCUCUCCUUCCUGG: 0.359
UAGUGUUAUCUGACUAAUUCCUCUGAAUUUUGAUGUAAGAUCUAUAUAGGCCCCCAAAAUGAUCGUAGUACAUGCCAGUCAUUUCUCAGUGAAAUAAAUACAAUACCAGA: 0.498

Study 4 — method: protein-binding microarray; molecule type: double-stranded DNA, one strand shown; sample: in vitro; concentration: 250 nM; setting: 60-bp whole probe; added: salmon DNA 0.4 mg/ml; baseline: random background probes; reading: higher = stronger binding; measurement: log fluorescence; shared flanks, not repeated: GCCTAGCAC … GTCTTGATTCGCTTGACGCTGCTG
Target: Interferon regulatory factor 7, full length, phosphomimetic (IRF7, Homo sapiens, UniProt Q92985, residues 1-503, S101K/S471D/S472D/S475D/S476D/S477D/S483D/S484D/S487D)
Residues (chain): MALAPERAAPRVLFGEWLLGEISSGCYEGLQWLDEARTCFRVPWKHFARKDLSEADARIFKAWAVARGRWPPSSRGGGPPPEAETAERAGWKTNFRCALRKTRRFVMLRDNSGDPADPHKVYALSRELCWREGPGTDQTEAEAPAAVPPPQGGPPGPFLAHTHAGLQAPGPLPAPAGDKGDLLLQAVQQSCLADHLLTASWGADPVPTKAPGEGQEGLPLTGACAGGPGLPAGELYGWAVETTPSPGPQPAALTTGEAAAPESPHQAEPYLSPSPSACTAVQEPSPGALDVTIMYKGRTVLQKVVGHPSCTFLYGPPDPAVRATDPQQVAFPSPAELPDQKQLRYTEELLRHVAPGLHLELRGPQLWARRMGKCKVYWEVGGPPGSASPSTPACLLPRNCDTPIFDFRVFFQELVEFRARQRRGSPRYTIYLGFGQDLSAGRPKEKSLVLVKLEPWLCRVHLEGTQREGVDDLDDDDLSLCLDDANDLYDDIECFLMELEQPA
CAGCACAGCTGACTACAAGCGTGCTAG: -1.25 z-score
GACGGACTGGACTCTGGGGACGTGCTA: -0.588 z-score
TTAGGAGTGGGTCTCGGTTAGTGCTAG: 0.466 z-score
TTAGGTCTCGGTCCCGGTTAGTGCTAG: 0.96 z-score
TACGGTCTCGGTATCGGGACGTGCTAG: 2.15 z-score
TTAGGACTGGGGACTGGATTAGTGCTA: -0.329 z-score
GACGGTCTCCTACTCCTGACGTGCTAG: -0.212 z-score
GACGATTTCGGGACTGGAGAGGTGCTA: 0.0422 z-score
TTAGAACAGAGTCTCGATTAGTGCTAG: 1.21 z-score
TTAGGCTTCCTTTTCCTTTAGTGCTAG: 0.659 z-score
GATGGTTTCGGGACTGGGGACGTGCTA: 4.14 z-score
TTAGACTTCAGTTCCGATTAGTGCTAG: 0.89 z-score
GCCGGTCTCGGTATCGGGACGTGCTAG: 2.15 z-score
TCAGTTTTCATTATTGTACTGTGCTAG: 1.45 z-score
TTAGCTTTCGGGTATCGATTAGTGCTA: 1.35 z-score
GACGGTCTCCTTCTCCTGATGTGCTAG: -0.00249 z-score
GACGATATCGGGGATCGAGACGTGCTA: -0.646 z-score
TTAGAACTGAGACTGCATTAGTGCTAG: 0.0629 z-score
TCATTCCTGATCTCTGGTACTGTGCTA: 1.4 z-score
CCTATCTTATGATATATATAAGTGCTA: 0.723 z-score
TTAGGTATCGGGACTGAGTTAGTGCTA: 0.273 z-score
TGAAATCTCTTTCCTTACTTGTGCTAG: 1.14 z-score
TTAGATTTCAGTCTCGATTAGTGCTAG: 2.01 z-score
TCAAGGCCAGGGTTTCTGTTGTGCTAG: 0.17 z-score
GACGAACAGGGGTTTCGAGACGTGCTA: 1.92 z-score

Excerpt of the above (study 1):
CCGGTTAA: 0.19
GTAAAGGA: -0.123
AGATCGAA: -0.0541
CTGGCCTC: -0.158
CACGTGTC: -0.144
AGGCGTCG: 0.176
AGAACTTC: -0.0247
TAGGATGA: -0.0317
CGTAAAAA: 0.0805
TAGGTATA: -0.176
